# Assay results collected from several papers.
# Compare with care: the assays were run in different laboratories. Several values in a cell are separate wells, animals, samples, runs or records.
# Target: Mitogen-activated protein kinase 11 (MAPK11, Homo sapiens, UniProt Q15759)
# Sequence of UniProt Q15759 (whole entry, unmodified, looked up): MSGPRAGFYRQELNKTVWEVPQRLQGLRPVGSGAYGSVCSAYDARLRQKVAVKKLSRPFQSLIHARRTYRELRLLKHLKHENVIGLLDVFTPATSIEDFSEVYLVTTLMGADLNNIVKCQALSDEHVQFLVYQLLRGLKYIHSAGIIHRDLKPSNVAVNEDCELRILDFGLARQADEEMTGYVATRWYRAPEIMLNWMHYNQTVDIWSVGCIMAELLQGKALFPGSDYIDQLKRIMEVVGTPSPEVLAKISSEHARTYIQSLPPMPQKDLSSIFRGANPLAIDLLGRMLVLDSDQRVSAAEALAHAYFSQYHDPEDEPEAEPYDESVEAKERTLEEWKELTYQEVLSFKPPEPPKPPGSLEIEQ
SMILES,test,system,conditions,scale,measurement,result
CN1CCN(Cc2ccc(NC(=O)c3cccc(C#Cc4cnc(N)c5ncccc45)c3)cc2C(F)(F)F)CC1,"cell-free assay, competition with immobilised ligand",,50 nM,,remaining binding,70%
C=CC(=O)Nc1cccc(-c2cnc3[nH]cc(C(=O)NC(C)(C)C)c3n2)c1,kinase activity,,0.1 µM,,inhibition,3% and 0%
COc1cc(Nc2nc(C)cc(-c3cnn4nc(OC)ccc34)n2)cc(C(F)(F)F)c1,KINOMEscan,,"1 µM, p38-beta",baseline: DMSO,remaining binding,100%
Cc1ccc(-c2c(/C=C(\C#N)C(=O)NC(C)C)n(CCCO)c3ncnc(N)c23)cc1,"cell-free assay, competition with immobilised ligand",,1 µM,,remaining binding,83%
C=CC(=O)N1CCCC(n2c(=O)c3ncccc3n(Cc3ccc(Oc4ccccc4)cc3)c2=O)C1 (stereo not shown),"cell-free assay, competition with immobilised ligand",,1 µM,,remaining binding,87%
Cc1cccc(-c2ccc3nc(NC(=O)C4CCOCC4)nn3c2)c1,"enzyme activity, Dundee kinase panel",,10 µM,,remaining activity,87%
CCN1CCN(Cc2ccc(NC(=O)c3ccc(C)c(NC(=O)c4cncc(-c5cccs5)c4)c3)cc2C(F)(F)F)CC1,"binding, competition with immobilised ligand",,1 µM,,remaining binding,1%
CN1CC[C@@H](COc2cnc(C#N)cc2-c2ccn3nc(NC(=O)C4CC4)cc3c2)C1,"enzyme activity, inhibitor",,1 µM,,inhibition,2%
CNC(=O)C1CCN(c2cc(C)c(F)cc2NC(=O)c2ccc(-c3cc(O)ccc3C)c(C)c2)CC1,"binding, competition with immobilised ligand",,1 µM,,remaining binding,89%
CCn1cc(C(=O)O)c(=O)c2c(N)c(F)c(NC3CCCCC3)cc21,kinase activity,,"0.1 µM, with: ATP at Km",,inhibition,-0.4%
CNS(=O)(=O)Nc1nccc(Cc2c(C)c3ccc(Oc4ncccc4F)cc3oc2=O)c1F,"binding, competition with immobilised ligand",,10 µM,,remaining binding,90%
Cc1nc2c(F)cc(-c3nc(Nc4ccc(CNC(=O)CCCCCCC(=O)NO)cc4)ncc3F)cc2n1C(C)C,"enzyme activity, inhibitor",,1 µM,,inhibition,26%
O=C=[N][Ru-4]123([n]4c5ccc(O)cc5c5c6c(c7cc(F)c[n+]1c7c54)C(=O)NC6=O)[S+]1CC[S+]2CC[S+]3CC1 (stereo not shown),enzyme activity,,"100 nM, human enzyme, with: 10 µM ATP",baseline: untreated,remaining activity,106%
COc1ccc(NC(=O)Nc2ccc3c(c2)C(=O)N(C(C)CO)CC(C)C(CN(C)Cc2ccc4c(c2)OCO4)O3)cc1 (stereo not shown),"kinase activity, KinaseProfiler",,"0.03 µM, species human",baseline: control,remaining activity,82%
CS(=O)(=O)Nc1cccc(-c2csc3cnc(Nc4ccc(N5CCN(CCCCCOc6cccc7c6C(=O)N(C6CCC(=O)NC6=O)C7=O)CC5)cc4)nc23)c1 (stereo not shown),"kinase probe labelling, binder, KiNativ ATP-acylphosphate LC-MS",MOLT-4 live cells,1 µM,,inhibition,-12.9%
CC(C)=CC1OC(C)(C)C2C=C3C(=O)C(Cl)=CC(O)C3C3C(O)C4OC4C(=O)C132 (stereo not shown),"cell-free assay, competition with immobilised ligand",,10 µM,,remaining binding,97%
C=C1CCCCCCCCCC(CO)C1=O (stereo not shown),"cell-free assay, competition with immobilised ligand",,10 µM,,remaining binding,96%
Cc1ccc(C)c(-c2ccc3nc(NC(=O)C4CCCCC4)nn3c2)c1,"enzyme activity, Dundee kinase panel",,10 µM,,remaining activity,79%
NC(=O)[C@@H](O)C[C@H]1CCc2sc3ncnc(O[C@H]4CC[C@H](N5CCOCC5)CC4)c3c21,"enzyme activity, inhibitor",,10 µM,,inhibition,4%
CC(=O)N1c2ccc(-c3ccc(CNC(=O)c4cn5cc(-c6cnc(N)nc6)nc(N6CCOCC6)c5n4)cc3)cc2CC[C@@H]1C,KINOMEscan,,10 µM,,remaining binding,94%
Cc1cccc(O[C@H]2CCC[C@@H](C(C)CNCc3ccncc3)C2)c1 (relative stereo),"enzyme activity, inhibitor",,10 µM,,inhibition,-5%
Nc1ncc(-c2cc(-c3cnn(CC(F)(F)F)c3)ncc2F)nc1C(=O)NC1CNCC(F)C1 (stereo not shown),enzyme activity,,1 µM,baseline: DMSO control,remaining activity,94.2%
